Assay results gathered from unrelated publications.
Lines come from different studies, so protocols differ. ± gives the spread as reported.
WWOX WW1 domain: WW domain-containing oxidoreductase, WW1 domain (WWOX, Homo sapiens, UniProt Q9NZC7)
UniProt Q9NZC7, sequence (whole entry, looked up): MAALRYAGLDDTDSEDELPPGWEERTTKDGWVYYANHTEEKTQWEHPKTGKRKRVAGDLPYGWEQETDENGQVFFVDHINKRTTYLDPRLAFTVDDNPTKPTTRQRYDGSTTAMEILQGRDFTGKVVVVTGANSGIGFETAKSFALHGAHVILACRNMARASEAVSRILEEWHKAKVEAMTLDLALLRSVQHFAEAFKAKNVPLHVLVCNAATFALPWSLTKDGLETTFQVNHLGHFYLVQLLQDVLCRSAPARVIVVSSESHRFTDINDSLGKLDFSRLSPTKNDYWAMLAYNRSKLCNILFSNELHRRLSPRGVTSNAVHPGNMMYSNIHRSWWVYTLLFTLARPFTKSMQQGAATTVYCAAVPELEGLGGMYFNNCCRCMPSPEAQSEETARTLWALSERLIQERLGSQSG
MAL12: Alpha-glucosidase MAL12 (MAL12, Saccharomyces cerevisiae S288c, UniProt P53341)
UniProt P53341, sequence (whole entry, looked up): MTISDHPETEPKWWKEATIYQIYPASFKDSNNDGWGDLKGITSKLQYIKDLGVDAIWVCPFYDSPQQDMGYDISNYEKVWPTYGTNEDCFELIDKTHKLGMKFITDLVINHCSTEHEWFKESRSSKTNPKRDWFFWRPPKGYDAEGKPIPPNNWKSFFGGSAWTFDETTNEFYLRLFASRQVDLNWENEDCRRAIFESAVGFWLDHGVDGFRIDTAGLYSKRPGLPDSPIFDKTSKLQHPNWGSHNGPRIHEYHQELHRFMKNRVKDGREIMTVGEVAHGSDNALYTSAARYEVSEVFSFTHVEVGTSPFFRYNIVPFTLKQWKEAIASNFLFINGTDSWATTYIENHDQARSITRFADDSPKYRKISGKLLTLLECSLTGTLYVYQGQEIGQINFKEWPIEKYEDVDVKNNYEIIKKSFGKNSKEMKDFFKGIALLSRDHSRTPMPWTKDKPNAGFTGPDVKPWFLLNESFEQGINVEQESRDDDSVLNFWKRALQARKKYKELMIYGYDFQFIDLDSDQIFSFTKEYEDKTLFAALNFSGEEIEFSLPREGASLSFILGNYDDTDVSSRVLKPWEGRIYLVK
SCN9A: Sodium channel protein type 9 subunit alpha (SCN9A, Homo sapiens, UniProt Q15858)
UniProt Q15858, sequence (whole entry, looked up): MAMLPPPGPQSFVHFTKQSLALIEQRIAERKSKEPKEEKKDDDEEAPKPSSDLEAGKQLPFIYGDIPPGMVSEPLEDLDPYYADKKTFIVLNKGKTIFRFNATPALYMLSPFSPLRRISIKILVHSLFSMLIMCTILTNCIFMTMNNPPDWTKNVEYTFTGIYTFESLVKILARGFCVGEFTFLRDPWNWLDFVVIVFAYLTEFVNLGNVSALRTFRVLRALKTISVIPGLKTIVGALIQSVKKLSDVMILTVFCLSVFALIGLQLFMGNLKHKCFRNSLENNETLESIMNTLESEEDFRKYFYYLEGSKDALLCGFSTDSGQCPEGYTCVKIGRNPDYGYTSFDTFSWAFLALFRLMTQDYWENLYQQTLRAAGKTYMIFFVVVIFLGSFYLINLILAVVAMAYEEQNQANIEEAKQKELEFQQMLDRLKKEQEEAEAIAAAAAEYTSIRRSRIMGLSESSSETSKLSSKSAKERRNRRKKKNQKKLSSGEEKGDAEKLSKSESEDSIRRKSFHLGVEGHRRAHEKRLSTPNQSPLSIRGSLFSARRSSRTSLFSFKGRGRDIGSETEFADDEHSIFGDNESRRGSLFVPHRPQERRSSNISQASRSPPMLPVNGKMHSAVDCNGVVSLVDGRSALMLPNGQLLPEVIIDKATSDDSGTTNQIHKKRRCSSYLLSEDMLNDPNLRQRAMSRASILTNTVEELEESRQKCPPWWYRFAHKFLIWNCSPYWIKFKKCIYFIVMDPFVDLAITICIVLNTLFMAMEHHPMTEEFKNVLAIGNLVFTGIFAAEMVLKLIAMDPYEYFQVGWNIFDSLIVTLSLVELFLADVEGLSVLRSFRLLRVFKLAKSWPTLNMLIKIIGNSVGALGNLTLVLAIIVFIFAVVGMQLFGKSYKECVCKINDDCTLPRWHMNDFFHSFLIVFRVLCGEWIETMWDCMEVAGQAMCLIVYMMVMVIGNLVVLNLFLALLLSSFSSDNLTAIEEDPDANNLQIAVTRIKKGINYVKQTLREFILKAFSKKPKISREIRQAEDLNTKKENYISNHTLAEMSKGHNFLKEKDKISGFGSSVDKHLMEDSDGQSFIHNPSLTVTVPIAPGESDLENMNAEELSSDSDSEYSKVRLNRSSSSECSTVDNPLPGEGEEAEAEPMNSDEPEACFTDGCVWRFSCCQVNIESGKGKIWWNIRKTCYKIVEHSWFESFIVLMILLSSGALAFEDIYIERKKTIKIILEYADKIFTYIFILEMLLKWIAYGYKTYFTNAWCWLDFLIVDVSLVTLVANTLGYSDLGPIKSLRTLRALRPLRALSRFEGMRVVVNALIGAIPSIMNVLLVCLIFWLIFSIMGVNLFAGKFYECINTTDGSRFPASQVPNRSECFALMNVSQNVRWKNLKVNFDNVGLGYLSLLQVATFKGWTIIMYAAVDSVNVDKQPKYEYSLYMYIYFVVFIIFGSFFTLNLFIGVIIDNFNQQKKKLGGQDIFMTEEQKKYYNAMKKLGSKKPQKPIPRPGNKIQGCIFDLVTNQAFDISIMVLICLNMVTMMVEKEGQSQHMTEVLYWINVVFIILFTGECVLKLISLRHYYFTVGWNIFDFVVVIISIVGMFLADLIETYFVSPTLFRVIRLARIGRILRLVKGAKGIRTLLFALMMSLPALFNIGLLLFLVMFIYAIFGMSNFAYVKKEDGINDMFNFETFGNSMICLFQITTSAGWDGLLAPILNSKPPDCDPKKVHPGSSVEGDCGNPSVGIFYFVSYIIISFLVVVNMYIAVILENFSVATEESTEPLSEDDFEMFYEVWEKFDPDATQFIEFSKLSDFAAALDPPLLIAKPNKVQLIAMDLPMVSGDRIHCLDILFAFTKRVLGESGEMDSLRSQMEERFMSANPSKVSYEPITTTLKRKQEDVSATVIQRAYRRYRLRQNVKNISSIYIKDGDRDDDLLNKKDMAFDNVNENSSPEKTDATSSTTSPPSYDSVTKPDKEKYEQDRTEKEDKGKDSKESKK
HBA1 with beta chain: Hemoglobin subunit alpha, with beta chain (HBA1, Homo sapiens, UniProt P69905)
UniProt P69905, sequence (whole entry, looked up): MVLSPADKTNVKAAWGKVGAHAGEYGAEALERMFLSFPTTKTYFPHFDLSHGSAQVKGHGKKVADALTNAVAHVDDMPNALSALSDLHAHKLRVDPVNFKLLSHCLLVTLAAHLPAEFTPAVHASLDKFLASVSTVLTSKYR
UniProt Q01727, sequence (whole entry, looked up): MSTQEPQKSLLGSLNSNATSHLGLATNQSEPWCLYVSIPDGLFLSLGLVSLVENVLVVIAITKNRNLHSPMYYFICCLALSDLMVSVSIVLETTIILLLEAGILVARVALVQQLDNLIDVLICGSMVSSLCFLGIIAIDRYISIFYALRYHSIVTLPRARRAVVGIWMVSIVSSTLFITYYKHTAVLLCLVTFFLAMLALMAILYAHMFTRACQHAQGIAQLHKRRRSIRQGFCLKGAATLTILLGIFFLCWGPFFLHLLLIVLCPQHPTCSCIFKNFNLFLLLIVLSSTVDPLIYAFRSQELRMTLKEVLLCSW
UniProt P33033, sequence (whole entry, looked up): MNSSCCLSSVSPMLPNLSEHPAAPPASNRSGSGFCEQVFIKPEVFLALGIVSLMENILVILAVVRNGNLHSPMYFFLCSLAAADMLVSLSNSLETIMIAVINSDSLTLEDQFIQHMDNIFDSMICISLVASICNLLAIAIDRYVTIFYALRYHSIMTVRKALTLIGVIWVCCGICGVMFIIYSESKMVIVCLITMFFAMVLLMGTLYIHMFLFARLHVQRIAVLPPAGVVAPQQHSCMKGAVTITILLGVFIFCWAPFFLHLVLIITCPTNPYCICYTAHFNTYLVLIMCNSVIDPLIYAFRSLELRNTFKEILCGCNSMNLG
UniProt P0DMV8, sequence (whole entry, looked up): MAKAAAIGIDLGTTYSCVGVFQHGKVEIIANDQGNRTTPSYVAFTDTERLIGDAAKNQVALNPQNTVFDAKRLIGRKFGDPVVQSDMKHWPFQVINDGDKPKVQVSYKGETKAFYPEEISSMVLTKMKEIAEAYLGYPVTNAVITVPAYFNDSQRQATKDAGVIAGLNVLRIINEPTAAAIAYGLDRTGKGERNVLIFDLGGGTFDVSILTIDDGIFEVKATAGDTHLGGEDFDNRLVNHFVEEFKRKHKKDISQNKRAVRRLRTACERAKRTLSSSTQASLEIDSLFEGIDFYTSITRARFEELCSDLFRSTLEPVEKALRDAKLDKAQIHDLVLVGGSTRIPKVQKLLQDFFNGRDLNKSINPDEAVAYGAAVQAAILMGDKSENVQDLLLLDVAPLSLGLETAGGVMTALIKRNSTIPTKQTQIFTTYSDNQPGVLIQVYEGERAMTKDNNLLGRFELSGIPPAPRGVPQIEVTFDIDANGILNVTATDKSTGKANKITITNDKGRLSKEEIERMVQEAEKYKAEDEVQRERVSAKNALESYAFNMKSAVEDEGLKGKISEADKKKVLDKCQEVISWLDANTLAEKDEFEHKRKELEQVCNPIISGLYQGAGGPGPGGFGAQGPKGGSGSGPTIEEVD
UniProt Q14654, sequence (whole entry, looked up): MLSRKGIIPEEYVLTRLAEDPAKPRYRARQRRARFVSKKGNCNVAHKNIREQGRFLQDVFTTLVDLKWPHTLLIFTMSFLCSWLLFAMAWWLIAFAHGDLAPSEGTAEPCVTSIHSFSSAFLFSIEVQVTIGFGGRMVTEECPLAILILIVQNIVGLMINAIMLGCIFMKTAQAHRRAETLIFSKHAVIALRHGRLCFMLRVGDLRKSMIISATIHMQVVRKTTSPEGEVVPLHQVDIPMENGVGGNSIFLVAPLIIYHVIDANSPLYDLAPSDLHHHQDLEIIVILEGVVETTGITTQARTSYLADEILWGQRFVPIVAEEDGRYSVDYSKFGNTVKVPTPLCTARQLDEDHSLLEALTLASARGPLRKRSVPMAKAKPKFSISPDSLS

Substance | target | assay | system | conditions | scale | quantity | result
CC(C)C[C@H](NC(=O)[C@@H](NC(=O)[C@@H](N)[C@@H](C)O)C(C)C)C(=O)N1CCC[C@H]1C(=O)N1CCC[C@H]1C(=O)N1CCC[C@H]1C(=O)N1CCC[C@H]1C(=O)N[C@@H](Cc1ccc(O)cc1)C(=O)N[C@@H](CCCNC(=N)N)C(=O)N[C@@H](Cc1c[nH]cn1)C(=O)N[C@@H](CCCNC(=N)N)C(=O)N[C@@H](CC(N)=O)C(=O)O | WWOX WW1 domain | binding, ITC | – | pH 7.0, 25 °C | – | ΔH | -6.21 ± 0.54 kcal/mol
Ac-KIVTSAK (N-acetyl) | Alpha-synuclein (SNCA, Homo sapiens, UniProt P37840) | fibril formation, thioflavin T fluorescence | peptide | 2 molar equivalents, 16 h, 37 °C, 1.5 % HFIP, added: α-synuclein 100 µM | baseline: untreated | remaining aggregation | ≥ 90%
O=c1cc(-c2ccccc2)oc2cc(O)ccc12 | MAL12 | enzyme activity, inhibitor | – | 50 µM | – | inhibition | < 1%
COc1ccc(Cl)cc1C(=O)NCCc1ccc(S(=O)(=O)NC(=O)NC2CCCCC2)cc1 | Abcc9/KCNJ11 (Mus musculus, UniProt P70170+Q14654) | channel activity, inhibitor, inside-out patch clamp | HEK293 | 10 µM, added: 50 µM MgATP | baseline: before drug | remaining activity | 22 ± 4%
O=c1cc(-c2ccc(O)cc2)oc2cc(O)cc(O)c12 | Kcnh1 (Mus musculus, UniProt Q60603) | inside-out patch clamp | Xenopus oocytes | 10 µM | – | V1/2 shift | -5.3 ± 1.9 mV
COC(=O)c1scc(C)c1NC(=O)C(C)N1CCN(C(C)C)CC1 (stereo not drawn) | SCN9A | cell membrane chromatography | – | – | higher = stronger binding | capacity factor k′ | 94
CC1=CC(=O)c2ccccc2C1=O | Heme oxygenase 2 (HMOX2, Homo sapiens, UniProt P30519) | enzyme activity, activator | – | 25 µM | – | induction | 8
COc1cc2c(cc1OC)-c1c/c(=N\c3c(C)cc(C)cc3C)n(C)c(=O)n1CC2 | Dual specificity calcium/calmodulin-dependent 3',5'-cyclic nucleotide phosphodiesterase 1B (Homo sapiens, UniProt Q01064) | cGMP hydrolysis, inhibitor | – | up to 50 µM | – | IC50 | inactive
COc1cc2oc(-c3ccccc3)cc(=O)c2c(OC)c1O | MAL12 | enzyme activity, inhibitor | – | 10 µM, added: p-nitrophenyl α-D-glucopyranoside | – | inhibition | < 1%
CC(C)C[C@H](NC(=O)[C@H](C)NC(=O)[C@@H](N)[C@@H](C)O)C(=O)N1CCC[C@H]1C(=O)N1CCC[C@H]1C(=O)N1CCC[C@H]1C(=O)N1CCC[C@H]1C(=O)N[C@@H](Cc1ccc(O)cc1)C(=O)N[C@@H](CCCNC(=N)N)C(=O)N[C@@H](Cc1c[nH]cn1)C(=O)N[C@@H](CCCNC(=N)N)C(=O)N[C@@H](CC(N)=O)C(=O)O | WWOX WW1 domain | binding to WW1 domain, isothermal titration calorimetry | – | pH 7.0, 25 °C | – | binding free energy ΔG | -5.4 ± 0.11 kcal/mol
CC(=O)N[C@H](Cc1ccc(I)cc1)C(=O)N[C@H](Cc1ccc2ccccc2c1)C(=O)N[C@H](Cc1ccc2ccccc2c1)C(=O)N[C@H](CCCCN)C(N)=O | Mc1r (Mus musculus, UniProt Q01727) | cAMP, agonist, AlphaScreen | HEK293 | – | – | Emax | 35%
CC(C)C[C@H](NC(=O)[C@@H](NC(=O)[C@@H](N)[C@@H](C)O)C(C)C)C(=O)N1CCC[C@H]1C(=O)N1CCC[C@H]1C(=O)N1CCC[C@H]1C(=O)N1CCC[C@H]1C(=O)N[C@@H](Cc1ccc(O)cc1)C(=O)N[C@@H](C)C(=O)N[C@@H](Cc1c[nH]cn1)C(=O)N[C@@H](CCCNC(=N)N)C(=O)N[C@@H](CC(N)=O)C(=O)O | WWOX WW1 domain | binding to WW1 domain, isothermal titration calorimetry | – | concentration not given, pH 7.0, 25 °C | – | binding enthalpy ΔH | -4.02 ± 0.24 kcal/mol
Clc1cccc(Nc2nnc(-c3ccccc3)c3ccccc23)c1 | PDE1C (Homo sapiens, UniProt Q14123) | cGMP hydrolysis, inhibitor, fluorescence polarization | recombinant enzyme | up to 100 µM, 30 min preincubation, 30 °C, added: TAMRA-cGMP 25 nM | – | IC50 | inactive
CC1=C(C(=O)OCc2ccccc2)C(c2ccc(-c3ccccc3)cc2)NC(=S)N1Cc1ccc(-c2nnn[nH]2)cc1 (stereo not drawn) | HSPA1A (Homo sapiens, UniProt P0DMV8) | ATPase activity, inhibitor | – | 100 µM, without Hsp40 | baseline: DMSO, negative means inhibition | fold change in activity | -1.4 fold
CCC/C=C/COC(C)=O | chemosensory protein 3 (Chilo suppressalis, UniProt V9PY40) | binding, competitive ligand, fluorescence competitive binding | – | highest concentration tested, pH 7.4, protein 2 µM, added: 1-NPN 2 µM | baseline: no ligand | remaining 1-NPN fluorescence | 95.4 ± 1.9%
CC(C)C1CCCC(C(C)C)C1O (stereo not drawn) | Hcn1 (Mus musculus, UniProt O88704) | V1/2 shift, two-electrode voltage clamp | Xenopus oocytes | – | baseline: cyclohexanol over corresponding phenol | decrease in efficacy | > 2 fold
O=c1ccn([C@@H]2O[C@H](COP(=O)(O)OP(=O)(O)O)[C@@H](O)[C@H]2O)c(=O)[nH]1 | ABO (Homo sapiens, UniProt P16442, G235S/G268A/L266M/R176G) | ZZ-exchange NMR | – | 250 µM, added: H-disaccharide 1.5 mM | – | exchange rate constant kBA | 2.5 ± 0.6 Hz
CC(=O)N[C@@H](Cc1c[nH]c2ccccc12)C(=O)N[C@H](Cc1ccccc1)C(=O)N[C@@H](CCCNC(=N)N)C(=O)N[C@@H](Cc1csc2ccccc12)C(N)=O | Melanocortin receptor 3 (Mus musculus, UniProt P33033) | receptor activity, agonist, cell-based | – | up to 100 µM, Schild antagonism analysis | – | agonist and antagonist activity | inactive
COc1cc2oc(-c3ccc(O)cc3)cc(=O)c2c(O)c1OC | MAL12 | enzyme activity, inhibitor, absorbance | – | 100 µM | – | inhibition | 97.5%
O=Cc1ccc(C=O)o1 | HBA1 with beta chain | binding, cation-exchange HPLC-UV/Vis | – | 37 °C | – | association rate constant kon | 0.15 M⁻¹ s⁻¹
COCc1ccc(C=O)o1 | HBA1 with beta chain | item: haemoglobin A adduct | human normal whole blood | 2 mM, 24 h, hematocrit 30% | – | peak modification | 21%
N[C@@H](CSS)C(=O)O | Persulfide-sensing transcriptional regulator CstR (Enterococcus faecalis, UniProt Q82ZQ7) | thiol modification, oxidant, LC-MS | – | 1.2 mM, pH 7.4, anaerobic, 60 µM protein | – | pseudo-first-order rate constant | 0.033 ± 0.001 s⁻¹
C[N+](C)(C)C[C@@H](O)CC(=O)[O-] | SLC22A5 (Homo sapiens, UniProt O76082) | transporter uptake, inhibitor | – | 2.5 µM | – | inhibition | 15.8%
COc1cc(-c2cc(=O)c3ccc(O)c(OC)c3o2)cc(O)c1OC | MAL12 | enzyme activity, inhibitor, absorbance | – | 50 µM | – | inhibition | 72.6%
CC(C)C[C@H](NC(=O)[C@@H](NC(=O)[C@@H](N)[C@@H](C)O)C(C)C)C(=O)N[C@@H](C)C(=O)N1CCC[C@H]1C(=O)N1CCC[C@H]1C(=O)N1CCC[C@H]1C(=O)N[C@@H](Cc1ccc(O)cc1)C(=O)N[C@@H](CCCNC(=N)N)C(=O)N[C@@H](Cc1c[nH]cn1)C(=O)N[C@@H](CCCNC(=N)N)C(=O)N[C@@H](CC(N)=O)C(=O)O | WWOX WW1 domain | binding to WW1 domain, isothermal titration calorimetry | – | pH 7.0, 25 °C | – | binding free energy ΔG | -5.19 ± 0.11 kcal/mol
Nc1ccc2cccc(O)c2n1 | PY04617 (Plasmodium yoelii, UniProt Q7RFT5) | ultrafiltration HPLC-UV | – | 0.1 mM, pH 7.25, 4 °C, 6.5% DMSO, added: methionine competitor | – | UV signal reduction | 91.5 ± 1.4%
AMFKNNYPSL | H-2 class I histocompatibility antigen, K-B alpha chain, 26 (H2-K1, Mus musculus, UniProt P01901) | H2-K binding, flow cytometry | peptide, RMA-S | 10 µg per 100 µL, 3 h | – | MFI increase | 72.7%
COC(=O)c1scc(C)c1NC(=O)C(C)N1CCN(C)CC1 (stereo not drawn) | SCN9A | cell membrane chromatography | – | – | higher = stronger binding | capacity factor k′ | 83.2
VLASVSATHAKSSPY | human IgE | peptide microarray | peptide, peanut/walnut-allergic patient sera | concentration not given, 16 h, 4 °C | – | patients with IgE binding | 38%
PPCPAPELLGGPSVFLFP | FcγRI | binding, ELISA | peptide | 16.6, 5.53, 1.84 µM, 2 h, 24 °C, added: human IgG1 1.3 µM | – | competition with IgG1 | no inhibition

Some of these lines once more:
Substance | target | assay | system | conditions | scale | quantity | result
PPCPAPELLGGPSVFLFP | FcγRI | binding, ELISA | peptide | 16.6, 5.53, 1.84 µM, 2 h, 24 °C, added: human IgG1 1.3 µM | – | competition with IgG1 | no inhibition
O=c1cc(-c2ccc(O)cc2)oc2cc(O)cc(O)c12 | Kcnh1 (Mus musculus, UniProt Q60603) | inside-out patch clamp | Xenopus oocytes | 10 µM | – | V1/2 shift | -5.3 ± 1.9 mV
Nc1ccc2cccc(O)c2n1 | PY04617 (Plasmodium yoelii, UniProt Q7RFT5) | ultrafiltration HPLC-UV | – | 0.1 mM, pH 7.25, 4 °C, 6.5% DMSO, added: methionine competitor | – | UV signal reduction | 91.5 ± 1.4%
COC(=O)c1scc(C)c1NC(=O)C(C)N1CCN(C)CC1 (stereo not drawn) | SCN9A | cell membrane chromatography | – | – | higher = stronger binding | capacity factor k′ | 83.2
CC(=O)N[C@H](Cc1ccc(I)cc1)C(=O)N[C@H](Cc1ccc2ccccc2c1)C(=O)N[C@H](Cc1ccc2ccccc2c1)C(=O)N[C@H](CCCCN)C(N)=O | Mc1r (Mus musculus, UniProt Q01727) | cAMP, agonist, AlphaScreen | HEK293 | – | – | Emax | 35%
